Published values from different studies.
Parts stem from different laboratories: compare values within a part only.

Study 1 — method: RNA Bind-n-Seq; molecule type: RNA; medium: in vitro; tested at: 365 nM; baseline: no-protein control; reading: higher = stronger binding
Target: RNA binding protein fox-1 homolog 2, RRM domain, GST-SBP tag (RBFOX2, Homo sapiens, UniProt O43251-10, residues 100-194)
Setting: natural RNA segment, single round, ends assumed
Residues (chain): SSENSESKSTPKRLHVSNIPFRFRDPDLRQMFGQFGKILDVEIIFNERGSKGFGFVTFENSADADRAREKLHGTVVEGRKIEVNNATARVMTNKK
Sequence | RBNS enrichment (R)
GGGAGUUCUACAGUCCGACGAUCACAGUGCAGCAGUGGGUGUGGCCUGACUACAUGUGCUGUUCCAGCCCUGGGUGCCCACUGACACCGACCCCCAGGCAGAGGCCUUUGUCUUCAGCACUCCUGAGAAGUUGUGGAAUUCUCGGGUGCCAA | 0.339
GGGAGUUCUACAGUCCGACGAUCGUACCAGAUGUCCCAUCCGGCAUCUUUCCAUUGAAUCUUGUAGUGCAACUUGCGUAUCAUCUUCUCCACCUCCAAGUGUCUGAAUGCUUACACAAAUAAAUUUUAUAACUUGGAAUUCUCGGGUGCCAA | 0.341
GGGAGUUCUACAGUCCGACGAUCCUUCCCAGAAUCUGUUUUGCCAUCUGCCAUUUGAGGGUGCUUGUUCUAAACAGCCUUUGAGGGUUUUACCCCCUGUGUCUCUUCCCUCCCCAUUGCCUAUUUGCACCCUAUGGAAUUCUCGGGUGCCAA | 0.854
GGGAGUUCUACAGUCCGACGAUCUGUUCAUCUCUGCCUUUGGACUAAAUAGGGGCAUCUGUGCAAAACUGUAGAAGCCAUUUUGAAGGAUUUGGCUUUUUAUUGUUUGUGGCAUUAAUAAGGGAGCUUACCAUUGGAAUUCUCGGGUGCCAA | 0.29
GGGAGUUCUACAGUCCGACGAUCGUUUUAUGGUGCCUGAGUUAGUCCUGUGCCUAACCAGUGGAGUUUCCGUCUCUGUGCUUGCUAAUAGUUUCACAAGUGGCUUGACUUUUUUAGAAGUAUUAUGUGGUAUUUGGAAUUCUCGGGUGCCAA | 0.981
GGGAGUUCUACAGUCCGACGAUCAAGAUCCUUCUCGUAUUUCAUUUGGAAAGAUGAGCAAGAGGUCUGCUUCCUUCAUUUUACUUCCCCUUCUGUUUUUGAAAGGCAGUUUCGCCAAGCUUAAUGCAAGAAUAUGGAAUUCUCGGGUGCCAA | 0.305
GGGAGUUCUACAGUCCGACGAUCCCAAAAGGAGGCUCCACGGGCCUCCAGGCUGCCGUGAGAAACCCAUGACACAUGCCUCUGGCAAAGCCAUCCAGCCUGUACUGCCUCCGUGGAAGGCCUAGACCCAGCAGUGGAAUUCUCGGGUGCCAA | 0.471
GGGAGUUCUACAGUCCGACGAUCGCAACUUCCUUAAUUCCUCCUGGUCAUAUAAUAUAUUUCCAUAGUAUCGUAUACUAUUAUGGAGUAUUUAAAAGACUCAAGUUCAAAUUAACAUGCUUCUUUUAUUCUUCUGGAAUUCUCGGGUGCCAA | 0.614
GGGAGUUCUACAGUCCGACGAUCCAGGGGUUUUAGCUCUGUUCUCUGCUCCCAUCCUUCGCUCACCAGCUGAGUGAGAACAUGAACUUUUUGCACCAUGUACCCAUGGCUUACACUACUUAGAAAAUCACCUUUGGAAUUCUCGGGUGCCAA | 0.424

Study 2 — method: protein-binding microarray; molecule type: double-stranded DNA, one strand shown; medium: in vitro; tested at: 2200 nM top; setting: 60-bp whole probe; together with: salmon DNA 0.4 mg/ml; baseline: random background probes; reading: higher = stronger binding; constant ends, left off below: GCCTAGCAC … GTCTTGATTCGCTTGACGCTGCTG
Target: Interferon regulatory factor 7, full length, phosphomimetic (IRF7, Homo sapiens, UniProt Q92985, residues 1-503, S471D/S472D/S475D/S476D/S477D/S483D/S484D/S487D)
UniProt Q92985, sequence (whole entry, unmodified, looked up): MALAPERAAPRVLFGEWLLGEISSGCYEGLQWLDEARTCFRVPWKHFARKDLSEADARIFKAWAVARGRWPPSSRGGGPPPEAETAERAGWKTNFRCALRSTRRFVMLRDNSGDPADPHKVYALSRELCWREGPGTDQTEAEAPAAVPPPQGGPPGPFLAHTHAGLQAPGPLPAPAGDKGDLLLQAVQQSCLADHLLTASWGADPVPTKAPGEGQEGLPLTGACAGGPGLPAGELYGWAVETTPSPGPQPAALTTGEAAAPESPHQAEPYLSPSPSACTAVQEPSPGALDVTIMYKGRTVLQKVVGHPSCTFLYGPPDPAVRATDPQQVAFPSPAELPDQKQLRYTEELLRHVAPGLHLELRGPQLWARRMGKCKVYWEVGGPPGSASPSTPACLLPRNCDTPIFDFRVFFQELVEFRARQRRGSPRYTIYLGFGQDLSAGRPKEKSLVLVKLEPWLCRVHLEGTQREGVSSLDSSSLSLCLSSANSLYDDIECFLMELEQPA
Sequence | fitted relative affinity [z-score]
GACGATTCTAGTTTCGAGACGTGCTAG | 4.41
TTAGAACGGGGGTTTCGATTAGTGCTA | 3.15
GACGGTTTTGGTTTCGGGACGTGCTAG | 5.54
TCTCTTTTTGCTTTCTTTTAGTGCTAG | 3.97
TCATTTCTCAACCATTTTACTGTGCTA | 2.14
TTATGACTGCTTCTCCTTTAGTGCTAG | 1.43
TCACACCTCTAGACTCTAACTGTGCTA | 0.906
GAAAGCCTGCTGCCAGTCTGGTGCTAG | -0.314
CTTTTTTTTTTTTTTTTTTGGTGCTAG | 1.99
GACGGACAGGGTATCGGGACGTGCTAG | -0.948
GACGGTATAGGTTTCGGGACGTGCTAG | 2.31
GACGGACTGGGGACTGCGGACGTGCTA | -0.988
GACGGACTGGGGACTGGGGATGTGCTA | -0.61
GACAGACTGCTACTGCTGACGTGCTAG | -0.169
TCAGTTTTCACTTTTCCACTGTGCTAG | 6.46
CACCACATTTTTTTCATTATGTGCTAG | 1.71
TCCTTCCACCATCTGATCAGGTGCTAG | 1.99
GCACTCTTCTTTTTTTTCTTGTGCTAG | 2.05
TCAACTTTGCTCTGTGCAACTGTGCTA | 0.506

Study 3 — method: protein-binding microarray; molecule type: double-stranded DNA, one strand shown; medium: in vitro; tested at: 0.8 µM; setting: whole 60-bp probe, no competitor; reading: higher = stronger binding
Target: Centromere-binding protein 1, full length, N-terminal tag (CBF1, Saccharomyces cerevisiae, UniProt P17106, residues 1-351)
UniProt P17106, sequence (whole entry, looked up): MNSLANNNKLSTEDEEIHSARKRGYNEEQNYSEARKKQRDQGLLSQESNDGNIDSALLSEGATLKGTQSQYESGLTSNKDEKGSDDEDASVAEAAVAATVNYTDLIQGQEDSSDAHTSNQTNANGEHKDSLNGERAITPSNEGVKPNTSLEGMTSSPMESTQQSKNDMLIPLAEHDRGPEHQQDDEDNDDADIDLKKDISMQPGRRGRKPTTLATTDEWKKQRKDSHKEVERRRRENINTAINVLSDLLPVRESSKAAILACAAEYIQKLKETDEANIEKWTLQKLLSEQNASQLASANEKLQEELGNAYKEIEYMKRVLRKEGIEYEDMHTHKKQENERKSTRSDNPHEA
Sequence | fluorescence intensity
GAATAAAGTACAGATCACGTAACGGAATGCTACTAGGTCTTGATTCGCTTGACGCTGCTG | 613 a.u.
TGTACGAAGCTATATCAGTTGAATATAGTAGTTAGGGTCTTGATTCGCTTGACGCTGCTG | 552 a.u.
GAATTTCTTAATGATGATGGCGTCTGTCTGACATAGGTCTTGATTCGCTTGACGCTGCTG | 527 a.u.
GAAATCGGTCAGTATCACGCTCATATGACAAGATAGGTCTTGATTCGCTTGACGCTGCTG | 815 a.u.
GAATCGGAAGAACACCACATGATGCAAGTTCTCTAGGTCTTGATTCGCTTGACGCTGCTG | 863 a.u.
GAAATCCTTTAACGCCTCATGATTATTGAATAGTAGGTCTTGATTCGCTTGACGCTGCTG | 594 a.u.
CCTAACTACTATAAGCGCGTGACATAGCTTCGTACAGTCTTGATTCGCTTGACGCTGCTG | 1710 a.u.
TGTACGAAGCTATGCCACGAGGATATAGTAGTTAGGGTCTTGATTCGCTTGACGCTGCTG | 532 a.u.
GAAGTGGCCTCCGGTCACCTCGAGTTAGAACTTTAGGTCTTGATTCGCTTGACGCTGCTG | 479 a.u.
GAATGAGACCGGAATCGCATCAGGTCTTATTAATAGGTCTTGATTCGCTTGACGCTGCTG | 480 a.u.
GAAAACTTATACTGCCGCACGCCAAACATTGCATAGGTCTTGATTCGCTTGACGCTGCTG | 488 a.u.
CTAGGTAAACCGAGTCACGAAGCTCAATCTTTTTTCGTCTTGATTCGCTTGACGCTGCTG | 584 a.u.
GAACCATTATACACTTTCACCTGTTGCTGAGTGTAGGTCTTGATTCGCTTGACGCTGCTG | 509 a.u.
CCTAACTACTATAGTCACGTGCCATAGCTTCGTACAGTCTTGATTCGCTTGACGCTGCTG | 26400 a.u.
CTAATTATTCCATGTGTCACAAAACCAGAAAGATTCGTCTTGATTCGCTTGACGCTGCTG | 909 a.u.
GAAGATTTCAAGAAAAAAATCACGTAGAAATAATAGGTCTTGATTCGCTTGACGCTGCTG | 708 a.u.
CTATTTGTATATGATAGTGTGATTTAGCGATATTTCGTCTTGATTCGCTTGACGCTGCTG | 607 a.u.
CTAATACATATGATTCACGTGAAAATTTTTATATTCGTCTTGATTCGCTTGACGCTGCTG | 4110 a.u.

Study 4 — method: RNA Bind-n-Seq; molecule type: RNA; medium: in vitro; tested at: not given; baseline: input RNA pool; reading: higher = stronger binding
Target: RING finger protein unkempt homolog, zinc fingers 1-6, GST-SBP tag (UNK, Homo sapiens, UniProt Q9C0B0, residues 30-357)
UniProt Q9C0B0, sequence (30-357, looked up): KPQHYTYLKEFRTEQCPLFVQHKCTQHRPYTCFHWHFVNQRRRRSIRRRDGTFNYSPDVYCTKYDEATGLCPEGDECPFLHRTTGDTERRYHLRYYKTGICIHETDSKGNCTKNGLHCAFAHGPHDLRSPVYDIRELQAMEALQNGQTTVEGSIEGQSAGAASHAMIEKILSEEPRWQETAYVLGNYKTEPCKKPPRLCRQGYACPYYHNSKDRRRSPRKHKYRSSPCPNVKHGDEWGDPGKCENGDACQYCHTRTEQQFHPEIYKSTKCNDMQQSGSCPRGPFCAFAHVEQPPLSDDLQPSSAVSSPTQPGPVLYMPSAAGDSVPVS
Setting: RNA with constant flanks, human-mouse chimeric sites, ends assumed
Sequence | bound/input enrichment
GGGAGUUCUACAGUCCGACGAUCCUGUGACCACAAGAUCCUGAAGUUUGAGCAGCUGAAGCACUUUUCUUCUCCUUGCCUGAACCCCCCCCCACUGCCCCCCCAUCCCCCAGUGUCGGCUGAGAUGUUGCCUCUGCACGGUUCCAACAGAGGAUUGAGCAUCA | 1.32 ratio
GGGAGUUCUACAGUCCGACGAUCAGAUUCCCCCUCCUGAGACCUCCUCCGAAGUUGGAGUCUCUUACAGAUGCCUCAUCCCCUGUUAGCGUUUUAGUUUGGACCACACAACCUUGGACAAUUCCCGCCAAUGAAGCUGUUUGCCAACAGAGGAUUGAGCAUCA | 2.03 ratio
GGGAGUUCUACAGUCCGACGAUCGACUUGGGACCGUCCUGGGCUAGUACAAAUAGCGGCAGUGGAGGCUCGAGAGGAAAGUUUGUUAGUGGAGGCAGUGGUAGAGGCCGUCAUGUACGGUCUUUACACGAAUAGAUGUGUUCUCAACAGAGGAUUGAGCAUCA | 0.759 ratio
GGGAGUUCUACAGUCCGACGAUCGCUGAAAAUGAAGAAGAGGCAGCUGAUGUCUGGUACAACCUGGGGCACAUAGCUGUGGGAAUAGGAGAUACAAACUUGGCCCACCAAUGCUUCAGGCUGGCUCUGGUCCACAACAACCACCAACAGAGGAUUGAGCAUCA | 0.293 ratio
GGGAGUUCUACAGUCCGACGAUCGGUGGGGUGGUCAUUGCCGUUUGAGCUGCUGAUUUUCAUGAGUCGCCUUCAAAACUCUCGUGUAGGGUUGACACUGUGGGGGGGUGGGGGAUCCAGCUUAUUCUUUUUCCCCAGCCCCCACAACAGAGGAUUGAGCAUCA | 0.445 ratio
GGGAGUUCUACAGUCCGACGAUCCAGGGCAUCAUCUCUCGUGCUGUUAGACACCUUUUUAAGAGUAUUGAUGAGAAAAAGACCUCAGCGAUUAAAAACGGGCUGCCCCCUCCUGAAUUCAAAGUGAAUGCCCAAUUCUUAGAGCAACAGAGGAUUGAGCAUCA | 0.826 ratio
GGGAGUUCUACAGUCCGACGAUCCUGGCCUUCUGAGCAUCAGGGGCCUCCUUUCGUAUAGUCACUGCUUCUGCAUCAGAUAUUUUUAGCUGCAACUCCCUACUGGGUGGGGCACCCAUUUCAGGCAGAAGGUUUUGGUACCCUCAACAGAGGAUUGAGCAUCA | 0.438 ratio
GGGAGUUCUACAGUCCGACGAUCCUCAGAGACGUGGCAUAUCAGUAUGUGAAAAAGGGGGCUCGUAUAUUUUUGGAAGGGAAAGUGGACUAUGGCGAGUACAUGGAUAAAAACAAUGUGAGGCGGCAAGCAACAACAAUCAUACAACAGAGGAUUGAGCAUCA | 0.367 ratio
